Measured values gathered from unrelated publications.
Numbered parts are unrelated; each lists some results of a single study.

Sample 1
Target: RING finger protein unkempt homolog, zinc fingers 1-6, GST-SBP tag (UNK, Homo sapiens, UniProt Q9C0B0, residues 30-357)
Method: RNA Bind-n-Seq
Form: RNA
Matrix: in vitro
Tested at: not given
Setting: RNA with constant flanks, human-mouse chimeric sites, ends assumed
Reference: input RNA pool
Reading: higher = stronger binding
Measurement: bound/input enrichment
Target sequence (chain): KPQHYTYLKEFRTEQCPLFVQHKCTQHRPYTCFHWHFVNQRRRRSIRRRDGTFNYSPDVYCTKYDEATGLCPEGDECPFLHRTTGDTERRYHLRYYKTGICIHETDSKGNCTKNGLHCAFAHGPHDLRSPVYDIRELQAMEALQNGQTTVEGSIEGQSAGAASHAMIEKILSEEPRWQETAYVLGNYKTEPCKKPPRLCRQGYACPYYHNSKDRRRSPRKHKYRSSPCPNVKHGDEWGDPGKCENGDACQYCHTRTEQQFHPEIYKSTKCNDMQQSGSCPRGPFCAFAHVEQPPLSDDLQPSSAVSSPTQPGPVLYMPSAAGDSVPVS
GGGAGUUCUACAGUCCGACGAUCCUGGCCUGGCCCUCCCCAGGGGCCUCCUUUCGUAUAGUAACUGUCAGUGCAUCAGAUAUUUUUAGCUGCAACUCCCUACUGGGUGGGGCACCCAUUUCAGGCAGAAGGUUUUGGUACCCUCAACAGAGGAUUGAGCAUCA: 0.74 ratio
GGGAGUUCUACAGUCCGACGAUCUCUUUAAAAAAAAAAUUACCUUUUCUGACAGUGCUUUCCCUCCCAUAGAUCCACGUUCACACUAGAAGAGCAAAGGCUCCGCAAACAGCUCAAACAUCUGAUGAAGAAAGAUUUCUGAGACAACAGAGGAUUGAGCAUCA: 1.76 ratio
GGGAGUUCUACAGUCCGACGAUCGGCUGCUGGUGACUGUCCUGGAGUGGCUGGAGUUCCCGCCGGAGCGCGGCCAGACUAAUUUUAGAAAAUGCCAAGUAGGAAAUUUGCCGAUGGUGAAGUGGUCAGAGGCCGAUGGCCUGGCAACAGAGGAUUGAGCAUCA: 7.59 ratio
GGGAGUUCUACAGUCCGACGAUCACACAAUAUGAGACCAACAGCAUGGACUUCAAAGUCGGGGCAGAUGGGACAGUCUUCGCCACCCGGGAGCUGCAGGUCCCCUCCGAGCAGGUGGCCUUCACGGUGACUGCAUGGGACAGCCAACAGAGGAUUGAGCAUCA: 0.174 ratio
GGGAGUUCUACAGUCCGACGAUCGUUGCCAGCUUCCGGUUCCGUUGGGCUAGCAAGCUCCCUGAGCUACGUGUCUCUACGCUCUCAAUCCGCCAUCCAACAAACAUGGAUCAGGUAAUGCAGUUUGUGGAGCCCAGCCGGCAGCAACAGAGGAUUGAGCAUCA: 0.0901 ratio
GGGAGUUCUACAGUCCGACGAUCCUGGGCUGCUCGGGUUAUUCUUUCCUUUAGGAAAAGCCUAAAGAUUAGGUUGUAAGAAAAACAGAAGCCAUGUUUCGAAGACCUGUGUUACAGGUAUUUCGUCAGUUUGUAAGACAUGAGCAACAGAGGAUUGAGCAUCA: 0.637 ratio
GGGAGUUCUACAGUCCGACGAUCUAAGUUAUUUUGUACAGCUUUGUAAAUUCUUAACAUUAAUUUGUAAAACAUUUUAUGUUGUUUGGGUAAUUUGGUUCAUUAAGUACAUAGCUAAGGUAAUGAACAUCUUUUUCAGUAAUUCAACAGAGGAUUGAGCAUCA: 0.329 ratio
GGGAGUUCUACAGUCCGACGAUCGGAUUCCGCUUCCGGUUCCGUUGGGCUCGGUUCUCUCCUGAGCUACGUGUCUCUACGCUCUCAAUCCGCCAUCCAACAAACAUGGAUGAUCAGGUAAAGUUUGUGGAGCCCAGCCGGCAGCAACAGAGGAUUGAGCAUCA: 0.0513 ratio
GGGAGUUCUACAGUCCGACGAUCUCCCAAAUCCAGCAGCUAGAAGGAGCCUUGAGACAAACACUCCACACGCAGGGAGGGCAAUAGCUUUGUACAUUGGUUUACAUUUUUUCCCCCUGUGGAUUUUUCUAGAGGUCAUAGUGCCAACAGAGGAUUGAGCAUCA: 0.86 ratio
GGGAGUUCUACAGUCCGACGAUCUCUUAACUUAUUCAUUUCUUAUUUUUAUAUAGCUAGAUAAAUAUUGUUAGUCUUAGACAAUAGCUCACAUUUUUUGAGAAGCAUGCCCUCCCUAUCCAUUUGUCUUAUAACAUGACCCAGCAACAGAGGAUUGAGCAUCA: 56.8 ratio
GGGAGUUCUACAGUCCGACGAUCGGCCUGGGACCGUCCUGGGCUAGUACAAAUAGCGGCAGUGGAGGCUCGAGAGGAAAGUUGUUAGUGGGAGGCAGUGGUAGAGGCCGUCAUGUACGGUCUUUACACGAAUAGAUGUGUUCUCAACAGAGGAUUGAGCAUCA: 0.618 ratio

Sample 2
Target: Interferon regulatory factor 5, full length, phosphomimetic (IRF5, Homo sapiens, UniProt Q13568-2, residues 1-514, S451D/S453D/S456D/S462D)
Method: protein-binding microarray
Form: double-stranded DNA, one strand shown
Matrix: in vitro
Tested at: 940 nM top
Setting: 60-bp whole probe
With: salmon DNA 0.4 mg/ml
Reference: random background probes
Reading: higher = stronger binding
Measurement: fitted relative affinity
Shared flanks, not repeated: GCCTAGCAC … GTCTTGATTCGCTTGACGCTGCTG
TTAGGCATCGGTATCGGTTAGTGCTAG: 4.3 z-score
AACGATTTCAGTTTCGAGACGTGCTAG: 5.03 z-score
TTAGGTCTCCTTTTCCGTTAGTGCTAG: 0.902 z-score
TTAGATCTCAGTCTCGATGAGTGCTAG: 2.24 z-score
GACAATTTCGGGTTTCGAGACGTGCTA: 2.52 z-score
TCATACATCTCTCTTAAACTGTGCTAG: 1.24 z-score
AACGGACTGGGTCTCGGGACGTGCTAG: -0.195 z-score
TGAGGTCTCCTTCTCCTTTAGTGCTAG: 0.245 z-score
GACGATATCGGGTTTCGTGACGTGCTA: 1.1 z-score
TCAATTATTGTCTTCCCACTGTGCTAG: 1.08 z-score
GACGGACTGGTTATCCTGACGTGCTAG: -0.598 z-score
GAAGATATCGGGTATCGAGACGTGCTA: 0.836 z-score
TTAGCTCTCAGACTGGATTAGTGCTAG: 0.202 z-score
TTAGCTATCCTTTTCCTTTAGTGCTAG: 0.858 z-score
GACGGTTTCGACTATCGGAACGTGCTA: 8.52 z-score
TTAGGTCTACTTCTCCTTTAGTGCTAG: 0.29 z-score
TCACATACTAATTTCCAACTGTGCTAG: 0.794 z-score
CACGGTATCGACACTGGGGACGTGCTA: 3.64 z-score

Sample 3
Target: Sal-like protein 4, full length isoform A (SALL4, Homo sapiens, UniProt Q9UJQ4, residues 1-1053)
Chain of UniProt Q9UJQ4 (whole entry, looked up): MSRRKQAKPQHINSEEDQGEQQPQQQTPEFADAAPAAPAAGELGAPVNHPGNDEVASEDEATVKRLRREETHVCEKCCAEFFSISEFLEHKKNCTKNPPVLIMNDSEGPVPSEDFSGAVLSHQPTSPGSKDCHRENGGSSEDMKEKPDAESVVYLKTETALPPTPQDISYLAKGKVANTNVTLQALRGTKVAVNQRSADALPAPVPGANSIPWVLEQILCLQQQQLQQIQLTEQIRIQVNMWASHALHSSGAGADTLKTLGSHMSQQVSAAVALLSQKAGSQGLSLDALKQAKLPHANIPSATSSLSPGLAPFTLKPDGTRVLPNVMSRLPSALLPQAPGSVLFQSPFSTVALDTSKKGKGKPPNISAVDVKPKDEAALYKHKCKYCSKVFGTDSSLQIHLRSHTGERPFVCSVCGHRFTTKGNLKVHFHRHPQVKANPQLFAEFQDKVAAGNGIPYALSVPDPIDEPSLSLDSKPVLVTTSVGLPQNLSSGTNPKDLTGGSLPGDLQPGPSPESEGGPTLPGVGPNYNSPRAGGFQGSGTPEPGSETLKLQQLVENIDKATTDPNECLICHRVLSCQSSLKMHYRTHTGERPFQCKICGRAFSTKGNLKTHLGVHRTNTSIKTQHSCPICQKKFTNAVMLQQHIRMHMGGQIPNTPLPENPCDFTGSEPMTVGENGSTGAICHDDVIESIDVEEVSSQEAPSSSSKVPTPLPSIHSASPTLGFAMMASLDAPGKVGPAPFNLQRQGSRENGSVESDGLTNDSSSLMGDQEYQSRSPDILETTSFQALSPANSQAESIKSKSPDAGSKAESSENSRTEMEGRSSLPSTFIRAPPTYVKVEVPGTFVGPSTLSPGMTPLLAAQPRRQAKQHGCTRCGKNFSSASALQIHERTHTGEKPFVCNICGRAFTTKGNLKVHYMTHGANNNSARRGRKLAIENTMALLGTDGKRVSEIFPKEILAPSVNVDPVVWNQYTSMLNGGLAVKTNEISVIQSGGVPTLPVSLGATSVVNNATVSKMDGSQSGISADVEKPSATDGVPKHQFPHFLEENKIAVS
Method: universal PBM
Form: double-stranded DNA, one strand shown
Matrix: in vitro
Tested at: 600 nM
Setting: 8-mer, flanks averaged, mean of replicates
Reading: higher = stronger binding
Measurement: E-score
ATAGGAAA: 0.298
CCCATTTA: 0.0448
GATGCCTA: 0.0104
ACATGCGT: 0.00222
ATTGCGGC: -0.0504
GTACCAGA: -0.016
GCATCCAC: -0.13
ATGGAGAA: 0.123
AGCAACGC: -0.0618
AGCACGTC: -0.144
GGAGCTAC: -0.195
GTCAAAAC: 0.0109
ATGAATGA: 0.305
ATCGCCCA: -0.232
CAGTTGCA: -0.0598
CAAAAGAA: 0.219
GTGCTAAC: -0.0359
TCGCCCGA: -0.265
ACCCTCAC: -0.275

Sample 4
Target: RNA binding protein fox-1 homolog 2, RRM domain, GST-SBP tag (RBFOX2, Homo sapiens, UniProt O43251-10, residues 100-194)
Method: RNA Bind-n-Seq
Form: RNA
Matrix: in vitro
Tested at: 365 nM
Setting: natural RNA segment, single round, ends assumed
Reference: no-protein control
Reading: higher = stronger binding
Measurement: RBNS enrichment (R)
Target sequence (chain): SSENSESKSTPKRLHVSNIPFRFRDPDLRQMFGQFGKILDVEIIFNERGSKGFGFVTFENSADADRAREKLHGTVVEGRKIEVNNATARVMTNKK
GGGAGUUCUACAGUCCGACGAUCUGCCGCAGCAAAUGAGGCUUCUCUCUGAGGAGCUGAGAGGUCUUGCAGCCUCUCCUUGUCAUUCUCCCACCCCACAUCCCAUUUUUUAAAGCCCUUUUGGUAAAAACCAAUGGAAUUCUCGGGUGCCAA: 0.248
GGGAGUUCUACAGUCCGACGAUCGACACCACAGAGGAAGCCACCCCAGUUCAGGAGGUAGAGGGUGGCAUGCUAGAUACGGAAGAACAGGAGCGCCAGACGCAGGCCGUCCUCCAAGCCGUUGCAGACAAAGUUGGAAUUCUCGGGUGCCAA: 0.993
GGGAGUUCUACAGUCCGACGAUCUUAGAAACACUCAGUCUCUGGUCCCAGAGGAUGGCUUCUCAGGGCAUGCCACAAGUUAAAGGUCACCUUCCUGAAAGAUGAAUGAGAAAGCUGCCCAUUCUCAAGACUCAUGGAAUUCUCGGGUGCCAA: 0.367
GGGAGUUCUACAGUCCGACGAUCGGCAAAGUCUUGGGGUCGGGGGUGGGUUGGGGGCAGGGGACUACCCCAUCAGGCAGGCGCCAGUCCGCUGGGUCCCUGUCCAUCCUUUCCACCCCCAGUACCCCAGGUGUUGGAAUUCUCGGGUGCCAA: 0.284
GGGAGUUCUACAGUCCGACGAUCUGUGCAAAGAAACUUUCUAACCCUUACCGGACACCGCACAGCUUCCUGCACUCAAGCCGCAGGGUAGUACAGUUUUACCACAGAGGGACUCUUGAGCAAUGGAGUCACGUUGGAAUUCUCGGGUGCCAA: 0.483
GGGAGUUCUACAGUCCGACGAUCCUCAGACCUCAGAGAUUGUGAAGGCAGUGCCAAGCUCACAGCAGUUCAGGACCAUCCCAGAAAGGGGUGAUAGCCCUGUUUAUCUCUCCAACCCAGUAUCUCAUGUGCCAUGGAAUUCUCGGGUGCCAA: 0.288
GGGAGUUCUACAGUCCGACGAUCGACAGACAAGUAACCCCCUCAUGGGGGAUGGGGACCUACCUGGCUCCUCAGCCAGCACCCAGCUUAACCCCUGCCAUCCCAUGCUGGGCCCUCCAGGCCAAGAGUCUCAGUGGAAUUCUCGGGUGCCAA: 0.236
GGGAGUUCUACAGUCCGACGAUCAAACUGUUGUCCUCCUGCUAAACACUGUCUGUUAAGGGACUCAGUCAUAUAUGCUUAUUGUUUUGUUCCAUGUGAUUCUUGUUUCCCUAUGCUCUUUAAUGGAGAAUCUGUGGAAUUCUCGGGUGCCAA: 2.94
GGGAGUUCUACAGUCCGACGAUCGGAUUUCUGUAGAGCUUGGCAGUUUCUGGCUCAUUUCUCUUGAGCACCGCACUAUUCUUGCCAUAGAGAGAGCCCAGGAGCCAACGCUGAAUCAGGUGCCCGGAGUCUUUUGGAAUUCUCGGGUGCCAA: 0.706
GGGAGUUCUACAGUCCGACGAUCUGGUGGGCAGCAGACUAAAGAGUUAUGUUGGAUAGUUUUAUUUCUGUGGCUGAAAAUAAAAUCUUGUCUAGCACAGUUAAAGUCAUUAAAAAUAAAAAUGACAGCUUUAGUGGAAUUCUCGGGUGCCAA: 0.67
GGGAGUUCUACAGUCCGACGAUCUCCAAAAUAACUAGGAUCUGCAUUUAGAACAAGAAUCAUUAUUUGUCCUGACCUUUUCAGUCCUACAGAGACGCAUCUGUGGUUCUUUUGUACUUGCCAUAGAUGUAACCUGGAAUUCUCGGGUGCCAA: 0.493
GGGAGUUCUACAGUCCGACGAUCUCUUAGCUUAUUGUGACUGUUUCAGAUCUAGUUUGGGAACAGAUUAGAGGCCAUUGUCUUCUGUCCUGAUCAGGUGGCCUGGCUGUUUCUUUGGAUCCCUCUGUCCCAGAUGGAAUUCUCGGGUGCCAA: 0.291

Excerpt of the above (sample 3):
AGCACGTC: -0.144
GGAGCTAC: -0.195
GTCAAAAC: 0.0109
ATGAATGA: 0.305
ATCGCCCA: -0.232
CAGTTGCA: -0.0598
CAAAAGAA: 0.219
GTGCTAAC: -0.0359
